Results pooled from the literature.
Protocols differ between the studies behind these lines. Several values in a cell are separate wells, animals, samples, runs or records. Numbers after ± are the reported error.

| Structure (SMILES) | assay | test system | conditions | how to read | quantity | result |
| --- | --- | --- | --- | --- | --- | --- |
| O=C(CCC(C(=O)[O-])N1CCN(C(CCC(=O)NCC(O)CO)C(=O)[O-])Cc2cccc(n2)CN(C(CCC(=O)NCC(O)CO)C(=O)[O-])CC1)NCC(O)CO.[Gd+3] (stereo not drawn) | ICP-MS | rat, femur epiphysis | intravenous, 0.6 mmol Gd/kg, 1 week | – | Gd concentration | 2.2 nmol/g |
| C=CCN1CC(=O)N2[C@@H](Cc3ccc(O)cc3F)C(=O)N(Cc3cccc(N4CC(N5CCN(CC)CC5)C4)n3)C[C@@H]2N1C(=O)NCc1ccccc1 | item: Nausea | advanced solid tumour patients | all doses, expansion part, any grade | – | treatment-related adverse events | 78.9% |
| Oc1ccc(/C=C/c2cc(O)cc(O)c2)cc1 | – | rat, azoxymethane-injected, blood at sacrifice | 10 mg/kg | – | inorganic phosphorus | 6.9 mg/dL and 6.2 mg/dL and 9 mg/dL |
| CC(C)CCCC(C)C1CCC2C3CC=C4CC(OC(=O)CCCCC[N+]5=C(C=CC=C6N(C)c7ccccc7C6(C)C)C(C)(C)c6ccccc65)CCC4(C)C3CCC12C (stereo not drawn) | HPLC | mouse serum | 5 h, 37 °C | – | degradation | ~65% |
| O=C(Cn1ccnc1)Nc1ccc(C2CCCCC2)cc1 | – | dog liver microsomes | 1 µM | – | hepatic clearance | 23 mL/min/kg |
| C[C@@H]1COCCN1c1cc(C2([S@](C)(=N)=O)CC2)nc(-c2cc[nH]c3nccc2-3)n1 | – | female BALB/c mice | dose not given, 48 h, together with: total body irradiation 6 Gy | relative to: irradiation alone | white blood cell count | no effect |
| Cl.[2H]C([2H])([2H])CC(=O)c1cnc(NC(=O)C2CC2)cc1Nc1cccc(-c2ncn(C([2H])([2H])[2H])n2)c1OC | – | human, fed, multiple dose | oral, 30 mg twice daily, tablet, day 1, median | – | Tmax | 2.09 h |
| COc1ccc2c(c1)CN(C(=O)CCN1CCC(Cc3ccccc3)CC1)CC[S@@+]2[O-] | telemetry | conscious dog | intravenous, 2 mg/kg, 1 h | – | heart rate | 95 ± 19 beats/min |
| Nc1cccc2ccc(/C=C/C(=O)c3ccccc3)cc12 | – | toluene | 20 °C | – | excitation maximum | 417 nm |
| CCN1/C(=C/C(C)=O)Sc2ccc(F)cc21 | – | cynomolgus monkey | oral, 100 mg/kg, 0.5 h post-dose | – | QTc interval (Bazett) | 333 ± 12 ms |
| COc1ccnc(C(=O)N[C@H]2COC(=O)[C@H](Cc3ccccc3)[C@@H](O)[C@H](C)OC2=O)c1O | soil adsorption | clay soil | pH 7.6, organic carbon 1.7 % | – | KFoc | 731 mL/g |
| COc1cc2nccc(Oc3ccc(NC(=O)c4cc5c(n(-c6ccccc6)c4=O)CCCC5=O)nc3)c2cc1OC | – | human, relapsed/refractory AML | oral, dose not given, grade ≥3, any causality, all doses | – | patients with Klebsiella sepsis | 10% |
| CC(C)Cn1cnc2c(N)nc3ccccc3c21 | – | C57BL/6J CYP1A-knockout male mice, corn oil-treated, liver microsomes | 1 µM, 45 min | relative to: control | remaining compound | 37% |
| Cc1ccc(CCC(=O)Nc2nnc(S(N)(=O)=O)s2)cc1 | – | BALB/c mouse, male, plasma | oral, 20 mg/kg, 2 h | – | unbound plasma concentration | 0.311 ng/mL |
| Cc1cc(C)c(CNC(=O)c2cc(Cl)c3c(c2C)O[C@@](C)([C@H]2CC[C@H](N(C)C)CC2)O3)c(=O)[nH]1 | – | human, male | oral, dose not given, together with: fluconazole | relative to: compound alone | AUCinf fold increase | 1.6 fold and ~1.6 fold |
| O=C(NCCc1cccnc1)c1ccc(C2CCCCC2)cc1 | liver microsome stability | cynomolgus liver microsomes | 1 µM | – | hepatic clearance | 41 mL/min/kg |
| CC(C)(C)NC(=O)C1CCN(Cc2cccc(/N=N/c3cccc(F)c3)c2)CC1 | – | DMSO | 25 µM, 25 °C | – | absorption maximum, cis isomer | 434 nm |
| C[C@@H](Nc1cc(F)cc(F)c1)c1cc(C(=O)N(C)C)cc2c(=O)cc(N3CCOCC3)oc12 | – | advanced solid tumour patients | oral, 30 mg twice daily, continuous monotherapy | – | dose reduction due to AE | 25% |
| CC(C)(C(=O)N1CCOc2c(C#N)cncc2C1)C(F)F | item: musculoskeletal disorders | healthy humans, both sexes | oral, 40 mg single dose | – | share of subjects with TEAE | 16.7% |

| Structure (SMILES) | assay | test system | conditions | how to read | quantity | result |
| --- | --- | --- | --- | --- | --- | --- |
| CC(C)(c1ccc(O)cc1)c1ccc(O)cc1 | – | whole cow milk | 2000 nM nominal | – | dose fraction in skim milk | 56.7% |
| Cc1cc(Nc2ccc(S(F)(F)(F)(F)F)cc2)n2nc(C(C)(F)F)nc2n1 | – | Plasmodium vivax malaria patients | oral, 400 mg | – | adverse event Stomatitis | 0% |
| CCOc1c([C@H](C)n2nc(C)c3c(N)ncnc32)cc(Cl)c(F)c1[C@@H]1CNC(=O)C1 | – | patients, monotherapy | oral, 10 mg once daily, cycle 1 day 15 | – | Cmin | 104 ± 46 nM |
| CN(C)N=Nc1[nH]cnc1C(N)=O | – | human patients, plasma | intravenous infusion, 1000 mg/m^2, 1 h infusion, cycle 1 day 1, alone | – | Vz | 34.4 L/m² |
| CSCC[C@H](NC(=O)[C@H](CCCCN)NC(=O)[C@H](CCCNC(=N)N)NC(=O)[C@H](CO)NC(=O)[C@H](Cc1c[nH]c2ccccc12)NC(=O)[C@H](CCCNC(=N)N)NC(=O)[C@H](CC(C)C)NC(=O)[C@@H](N)CCSC)C(=O)N1CCC[C@H]1C(=O)N[C@@H](CS)C(=O)N[C@H](C(=O)N[C@@H](CO)C(N)=O)C(C)C | 12G5 competition, SUP-T1 cells | human plasma | 20 µM, 2 h, 37 °C | – | remaining activity | 4 ± 0.5% |
| C[C@@H](N)C1CCN(S(=O)(=O)c2cccc3cnccc23)CC1 | – | healthy volunteers | 25 mg, fasted | – | participants with nausea | 0% |
| CN(C(=O)n1cnc(-c2cccnc2)c1)C1CCCCC1 | – | Wistar rat, cerebral cortex | oral, 10 mg/kg/day of BIA 10-2474, 4 h, repeated 5 days | – | concentration | 27.5 ± 4.4 ng/g |
| C[C@H]1CN(C(=O)CC#N)[C@]12CCN(c1ncnc3[nH]ccc13)C2 | – | healthy adults, plasma | oral, 6 mg single dose | – | half-life (geometric mean) | 174 min |
| O=C(O)CCCOc1ccc([18F])cc1-c1cc(-c2ccccc2C(F)(F)F)n(-c2ccccc2)n1 | radio-TLC | ddY mice male, plasma | intravenous, 37 MBq, 15 min | – | unchanged fraction of radioactivity | 90.7 ± 2% |
| C=CC(=O)Nc1cc(Nc2nccc(-c3cn(C)c4ccccc34)n2)c(OC)cc1N(C)CCN(C)C | storage stability | human dried blood spot | 30 d, -80 °C, LQC level | – | recovery | 91.3% |
| Cn1cc(Nc2nccc(-c3ccc4c(c3)CN(C3COC3)CC[C@H]4NC(=O)c3cn(C(C)(C)C)nn3)n2)cn1 | item: NKT cell count | human, clinical trial, whole blood | 50 mg twice daily, follow-up | – | percent change from baseline | -18.7% |
| CO[C@H]1C[C@@H]2CC[C@@H](C)[C@@](O)(O2)C(=O)C(=O)N2CCCC[C@H]2C(=O)O[C@H]([C@H](C)C[C@@H]2CC[C@@H](O)[C@H](OC)C2)CC(=O)[C@H](C)/C=C(\C)[C@@H](O)[C@@H](OC)C(=O)[C@H](C)C[C@H](C)/C=C/C=C/C=C/1C | – | healthy adult horses | intravenous, 0.06 mg/kg, 2 h | – | heart rate | 34 ± 2.8 beats/min |
| Cc1ccc([C@@H]2O[C@H](CO)[C@@H](O)[C@H](O)[C@H]2O)cc1Cc1ccc(-c2ccc(F)cc2)s1 | – | Japanese type 2 diabetes patients | 25 mg, day 5, 24 h urine collection | relative to: baseline | urinary sodium excretion change | 21.6 mEq |
| C[C@]12CC[C@@H]3c4ccc(O)cc4CC[C@H]3[C@@H]1CCC2=O | – | whole cow milk | 20 nM nominal | – | dose fraction in skim milk | 22.3% |
| NC(=O)CCNC(=O)c1ccc(C2CCCCC2)cc1 | liver microsome stability | cynomolgus liver microsomes | 1 µM | – | hepatic clearance | 19 mL/min/kg |
| NC1(C(=O)N[C@@H](CCO)c2ccc(Cl)cc2)CCN(c2nc[nH]c3nccc2-3)CC1 | – | metastatic CRPC patients | 400 mg b.i.d., grade 3 to 4, treatment-related, together with: enzalutamide 160 mg daily | – | incidence of Pyrexia | 0% |
| O=C(O)CCC(=O)O.[2H]C([2H])([2H])Oc1cc(C)c2[nH]ccc2c1CN1CC[C@@H](C2CC2)C[C@H]1c1ccc(C(=O)O)cc1 | – | healthy Chinese subjects | 50 mg, single ascending dose | – | TEAE proteinuria | 0% |
| NC(=S)NN=Cc1ncccc1N | LC-MS/MS | human, plasma | oral, geometric mean | – | Cmax/dose | 4.14 µg/L/mg |
| CN1C(=O)[C@@H](NC(=O)c2nnc(Cc3ccccc3)[nH]2)COc2cccnc21 | – | healthy human, fasted, plasma | oral, 200 mg single dose, geometric mean | – | Vz/F | 57.1 L |

| Structure (SMILES) | assay | test system | conditions | how to read | quantity | result |
| --- | --- | --- | --- | --- | --- | --- |
| CCc1cc(C(=O)NC)c2nccc(N3CCc4c(cc(Cn5ccnc5)cc4-c4cn(C)nc4C(F)(F)F)C3=O)c2c1 | – | Sprague Dawley rats | oral, 100 mg/kg once daily, 7 days | – | serum ALP activity | 416 ± 88.7 U/L |
| CCCOc1ccc(NC(=O)CN2CCN(C)CC2)cc1-c1nc(CC)c(CC)c(=O)[nH]1 | least-squares mean difference | healthy Chinese men | 10 mg, together with: alcohol 0.5 g/kg | relative to: compound plus placebo | maximal pulse rate increase difference | 2.84 bpm |
| CN1CCN(C(=O)c2ccc(C3CCCCC3)cc2)CC1=O | liver microsome stability | cynomolgus liver microsomes | 1 µM | – | hepatic clearance | 16 mL/min/kg |
| Cc1ccc(Sc2ccccc2N2CCNCC2)c(C)c1 | item: Nausea | healthy adult men | oral, 20 mg single dose, 10 day | – | participants with TEAE | 0% |
| N#Cc1ccc2c(c1)[C@H]1CCCN(C(=O)c3ccc4[nH]cnc4c3)[C@H]1C2 | – | human males | 40 mg, day 15 | – | SHBG level | 42.8 nmol/L |
| O=C(NCc1cc[nH]n1)c1ccc([C@H]2[C@@H](F)[C@@H](F)C[C@@H](F)[C@H]2F)cc1 | liver microsome stability | mouse liver microsomes | 1 µM | – | hepatic clearance | 14 mL/min/kg |
| O=c1oc2c(O)c(O)cc3c(=O)oc4c(O)c(O)cc1c4c23 | LC-MS/MS | male Ross 308 broilers, serum | oral, dose not given | – | serum concentration | not detected |
| Cc1cn(C(=O)c2c(-c3c(Cl)cc(Cl)cc3Cl)noc2C(C)(C)F)c2cccc(/C=C/C(=O)O)c12 | – | human patients | 500 mg bid, cycle 8 day 1 | – | AUC(0-8h) | 195 µg·h/mL |
| CNCc1ccc(-c2[nH]c3cc(F)cc4c3c2CCNC4=O)cc1 | – | human patients | oral, 480 mg twice daily, all grades | – | pulmonary embolism incidence | 0% |
| CNC(=O)c1ccc(-c2cnc3ncc(Cc4ccc5ncccc5c4)n3n2)cc1F | – | Japanese patients | oral, 400 mg, any grade | – | Cellulitis dose reduction/interruption | 2% |
| O=C(Nc1nc2cccc(-c3ccc(CN4CCS(=O)(=O)CC4)cc3)n2n1)C1CC1 | item: dysgeusia | human rheumatoid arthritis patients | oral, 30 mg once daily, 4 weeks, regardless of relatedness | – | treatment-emergent adverse events | 0% |
| O=C(Cc1cccnc1)Nc1ccc([C@H]2[C@@H](F)[C@@H](F)C[C@@H](F)[C@H]2F)cc1 | – | cynomolgus liver microsomes | 1 µM | – | hepatic clearance | 4.9 mL/min/kg |
| C=CC(=O)NC1CCN(c2ncc3ncnc(Nc4ccc(Oc5ccc6c(c5)ncn6C)c(C)c4)c3n2)CC1 | – | human, male, plasma | oral, 30 mg, fasted, adjusted geometric mean | – | AUC(0-tz) | 5.63 µM·h |
| COc1ccnc(C(=O)O)c1O | soil adsorption | soil | pH 6.9, organic carbon 0.8 % | – | KFoc | 26000 mL/g |
| O=C(COc1ccc(Cl)cc1)NC12CC(c3nnc([C@H]4C[C@@H](OC(F)(F)F)C4)o3)(C1)C2 | item: Headache | human | 100 mg once daily, 28 (unit not given) | – | adverse event incidence | 30% |
| O=C(NCC1CCOCC1)c1ccc([C@H]2[C@@H](F)[C@@H](F)C[C@@H](F)[C@H]2F)cc1 | liver microsome stability | mouse liver microsomes | 1 µM | – | hepatic clearance | 14 mL/min/kg |
| CCCCC[C@H](O)CC[C@@H]1[C@H]2Cc3cccc(OCC(=O)O)c3C[C@H]2C[C@H]1O | LC-MS/MS | Japanese IPAH/HPAH patients, plasma | inhaled, 54 µg | – | geometric mean AUC(0-inf) | 0.96 ng·h/mL |
| O=C(Cn1ccnc1)Nc1ccc([C@H]2[C@@H](F)[C@@H](F)C[C@@H](F)[C@H]2F)cc1 | – | cynomolgus liver microsomes | 1 µM | – | hepatic clearance | 4.9 mL/min/kg |
| CNC(=O)c1ccc(-c2cnc3ncc(Cc4ccc5ncccc5c4)n3n2)cc1F | ultrafiltration | human, plasma | oral, 200 mg, 3 h post-dose, geometric mean | – | unbound fraction | 0.033 |
